Measured values of several laboratories.
± gives the spread as reported.
UniProt O43242, sequence (whole entry, looked up): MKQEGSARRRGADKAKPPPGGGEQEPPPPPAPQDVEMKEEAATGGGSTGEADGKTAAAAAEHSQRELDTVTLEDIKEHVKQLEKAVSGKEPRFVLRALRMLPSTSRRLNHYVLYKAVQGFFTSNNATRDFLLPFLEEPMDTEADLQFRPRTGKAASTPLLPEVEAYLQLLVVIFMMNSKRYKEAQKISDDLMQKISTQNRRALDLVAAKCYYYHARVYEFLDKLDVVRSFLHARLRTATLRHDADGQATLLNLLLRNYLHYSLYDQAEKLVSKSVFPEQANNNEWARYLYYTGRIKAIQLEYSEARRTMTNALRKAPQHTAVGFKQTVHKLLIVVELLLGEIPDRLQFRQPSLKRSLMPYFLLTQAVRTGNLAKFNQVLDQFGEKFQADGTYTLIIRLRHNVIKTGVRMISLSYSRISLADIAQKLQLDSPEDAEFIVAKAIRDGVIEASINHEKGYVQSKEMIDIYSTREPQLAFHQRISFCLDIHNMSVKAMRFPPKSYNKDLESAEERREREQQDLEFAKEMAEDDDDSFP

CN[C@H](CC(C)C)C(=O)N[C@H]1C(=O)N[C@@H](CC(N)=O)C(=O)N[C@H]2C(=O)N[C@H]3C(=O)N[C@H](C(=O)N[C@H](C(=O)O)c4cc(O)cc(O)c4-c4cc3ccc4O)[C@H](O)c3ccc(c(Cl)c3)Oc3cc2cc(c3O[C@@H]2O[C@H](CO)[C@@H](O)[C@H](O)[C@H]2O[C@H]2C[C@](C)(N)[C@H](O)[C@H](C)O2)Oc2ccc(cc2Cl)[C@H]1O — volume of distribution, typical value (population PK model; human neonates; dose not given): 0.905 L
CCN1[C@@H](C(=O)NC23CCC(C(=O)O)(CC2)CC3)[C@H](c2cccc(Cl)c2F)[C@]2(C(=O)Nc3cc(Cl)ccc32)C12CCCCC2 — Anemia incidence (patients with advanced solid tumours; oral, 100 mg): 45.5%
O=C(Nc1ccccc1)C1CCN(C(=O)Oc2cccnc2)CC1 — back pain adverse events (healthy women; oral, 20 mg, 7 days): 7.1%
COc1ccnc(C(=O)N[C@H]2COC(=O)[C@H](Cc3ccccc3)[C@@H](OC(=O)C(C)C)[C@H](C)OC2=O)c1OCOC(=O)C(C)C — KFoc (soil adsorption; clay soil; pH 7.6, organic carbon 1.7 %): 8700 mL/g
CCCSc1ccc2nc(NC(=O)OC)[nH]c2c1 — neutrophils (mouse, blood; oral, 50 mg/kg, tolerability, mean): 11.7%
CC(C)C[C@H](NC(=O)[C@H](CCCCN)NC(=O)OCC1c2ccccc2-c2ccccc21)C(=O)N[C@H](C(=O)N[C@@H](Cc1ccccc1)C(=O)N[C@@H](Cc1ccccc1)C(=O)N[C@@H](CCCCN)C(=O)NCC(=O)N[C@@H](Cc1ccccc1)C(=O)N[C@@H](C)C(=O)N[C@@H](Cc1c[nH]c2ccccc12)C(=O)N[C@@H](CC(N)=O)C(=O)N[C@H](C(=O)N[C@H]1CSSC[C@@H](C(=O)N[C@@H](Cc2c[nH]cn2)C(=O)N[C@@H](CCCNC(=N)N)C(=O)N[C@@H](CCCNC(=N)N)C(=O)N[C@@H](C)C(=O)N[C@@H](CC(N)=O)C(N)=O)NC(=O)[C@H](C(C)C)NC(=O)[C@H](CCCNC(=N)N)NC(=O)[C@H](C(C)C)NC(=O)CNC(=O)[C@H](CC(N)=O)NC(=O)[C@H](CCCNC(=N)N)NC(=O)[C@H](Cc2ccc(O)cc2)NC(=O)[C@H](C(C)C)NC1=O)C(C)C)C(C)C — lymphocytes (ICR mouse, blood; intramammary, 5 mg/kg, day 5, 3 d dosing): 74.7 ± 1.18%
C[C@H]1CN(c2n[nH]c3nc(N[C@H]4CC[C@H](NS(=O)(=O)CCC(F)(F)F)CC4)ncc23)CCO1 — relative abundance (26S proteasome non-ATPase regulatory subunit 3 (PSMD3, Homo sapiens, UniProt O43242); inhibitor, Kinobeads competition profiling; 0.032 µM; relative to: vehicle): 0.95
Cc1ccc2c(c1)C(=O)C1(O)CCN(c3ccccc3)C1=N2 (centres unmarked) — parent remaining (aqueous solution; 4 h, bright light exposure): 82.9%
Cc1cc(C)c(CNC(=O)c2cc(Cl)c3c(c2C)O[C@@](C)([C@H]2CC[C@H](N(C)C)CC2)O3)c(=O)[nH]1 — Infection incidence (human, relapsed/refractory NHL; concentration not given, treatment-related TEAEs, grade 5): 0%
CCN1CCN(Cc2ccc(Nc3ncc(F)c(-c4cc(F)c5nc6n(c5c4)[C@H](C)CCC6)n3)nc2)CC1 — Anemia incidence, grade ≥3 (advanced solid tumour patients; dose not given, Phase Ia monotherapy): 12.5%
CNCCCN1c2ccccc2CCc2ccccc21 — IC50 (Plasmodium falciparum; HB3): 12.6 µM
C=CC(=O)Nc1cc(Nc2nccc(Nc3cc(Cl)c(F)cc3C(C)(C)O)n2)c(OC)cc1N1CC[C@@H](N(C)C)C1 — patients with adverse event Pneumonia (human; oral, dose not given, phase I clinical): 10.8%
C[C@]1(O)C[C@@](N)(c2ccc(-c3nc4n(c3-c3ccccc3)COc3ccncc3-4)cc2)C1 — patients with Nausea TEAE (human, advanced or metastatic solid tumours; 16 mg once daily, dose-response cohort): 100%
CC(C)CC(=O)OC[C@H]1O[C@@](C#N)(c2ccc3c(N)ncnn23)[C@H](O)[C@@H]1O — unbound fraction in plasma (monkey plasma; 0.9-90 µM): 0.711
CC/C(=C(\c1ccccc1)c1ccc(OCCN(C)C)cc1)c1ccccc1 — elimination rate constant (CD-1 mouse, male, lung; intraperitoneal, 1 mg/kg): 3.32e-05 s⁻¹
O=C(O)CCCOc1ccc(F)cc1-c1cc(-c2ccccc2C(F)(F)F)n(-c2ccccc2)n1 — relative organ weight (male Crl:CD(SD) rats, liver; intravenous, 25 µg/kg, 14 d): 2.74 ± 0.12 g%
CN1CC[C@@H](c2c(O)cc(O)c3c(=O)cc(-c4ccc(C(F)(F)F)cc4Cl)oc23)[C@@H]1CO — patients with adverse event (refers to: Anorexia; AML; oral, 150 mg, intermittent dosing): 0%
O[C@H]1CCCN[C@@H]1CCCn1cnc2c(Cl)c(Cl)ccc21 — terminal half-life (healthy volunteers, plasma; oral, 150 mg twice daily, alone): 4.47 h
CC(C)[C@H](N)C(=O)NCCCS(=O)(=O)O — AUC(0-12h) (human, plasma; oral, 265 mg twice daily, week 65, steady state, extrapolated): 11300 ng·h/mL
CC[C@H](C)[C@@H]1NC(=O)[C@@H]2CSSC[C@H](NC(=O)[C@H](CCCNC(=N)N)NC(=O)[C@@H]3CSSC[C@H](NC1=O)C(=O)N[C@@H]([C@@H](C)O)C(=O)N[C@@H](CCCNC(=N)N)C(=O)NCC(=O)N[C@@H](Cc1ccccc1)C(=O)N3)C(=O)N[C@@H](CC(C)C)C(=O)N[C@H]1CSSC[C@H](NC(=O)[C@H](C(C)C)NC(=O)CNC(=O)[C@H](CCCNC(=N)N)NC(=O)[C@H](CCCNC(=N)N)NC1=O)C(=O)N[C@@H](CCCNC(=N)N)C(=O)N2 — mixed vein vasculitis score (Sprague-Dawley rats, male, lung; 10 mg/kg; direction not given): 2 to 3
CCc1ccc(CC/C=C/c2ccc3c(c2)C(=O)CC3)cc1 — Erythrocyte percentage (Sprague-Dawley rat, female; oral, 450 mg/kg/day, 14 days): 11.1%
COc1cc(C2C3=C(COC3=O)N(CCO)c3cc4c(cc32)CCC4)cc(OC)c1OC (centres unmarked) — body weight (female Sprague-Dawley rats; intraperitoneal, 400 mg/kg, 24 h, single dose, mean): 200 g
O.O.O.O.O.O.[Cl-].[Cl-].[Co+2] — reticulocytes (Crl:CD(SD) rat male, blood; oral, 0.74 mg Co/kg/day, 90 days; relative to: red blood cells): 15.2%
C[C@H]1C[C@@H](N2C(=N)N[C@](C)(c3cccc(NC(=O)c4cccc(C#N)c4)c3Cl)CC2=O)CCO1 — glucose change (rat; 1000 mg/kg, every other day): 37%
CC(C)C[C@@H]1NC(=O)CNC(=O)[C@H](CC(N)=O)NC(=O)[C@H](CCCCN)NC(=O)[C@H]([C@@H](C)O)NC(=O)[C@@H]2CSSC[C@@H]3NC(=O)[C@H]([C@@H](C)O)NC(=O)CNC(=O)CNC(=O)[C@H](C(C)C)NC(=O)[C@@H]4CSSC[C@H](NC(=O)[C@H]([C@@H](C)O)NC(=O)[C@H](CSSC[C@H](NC(=O)[C@H](C(C)C)NC(=O)[C@@H]5CCCN5C1=O)C(=O)NCC(=O)N[C@@H](CCC(=O)O)C(=O)N[C@@H]([C@@H](C)O)C(=O)N4)NC(=O)CNC(=O)[C@@H]1CCCN1C(=O)[C@H]([C@@H](C)O)NC(=O)[C@H](CC(N)=O)NC3=O)C(=O)N[C@@H](CO)C(=O)N[C@@H](Cc1c[nH]c3ccccc13)C(=O)N1CCC[C@H]1C(=O)N[C@@H](C(C)C)C(=O)N2 — remaining peptide (HPLC; ammonium bicarbonate 0.1 M; 180 µM, 14 days, pH 9.0, 37 °C, deamidation stability): 56.3 ± 6.6%
CN1CCN(c2ccc(Nc3nccc(-c4cccc([N+](=O)[O-])c4)n3)cc2C(F)(F)F)CC1 — toxicity (zebrafish embryos; 50 µM, 5 d): 0%
COc1ccc(-c2c(-c3ccc(C#N)c(F)c3)nc(N3CCC(N)CC3)n(C)c2=O)cc1F — serious TEAE incidence (refers to: duodenal obstruction; human patients; oral, 60 mg, dose expansion): 0%
CN[C@H]1CC[C@@H](c2ccc(Cl)c(Cl)c2)c2ccccc21 — AUC(0-t) (CD-1 mouse, male, plasma; intraperitoneal, 1 mg/kg): 29.2 ng·h/mL
CO[C@H]1C[C@@H]2CC[C@@H](C)[C@@](O)(O2)C(=O)C(=O)N2CCCC[C@H]2C(=O)O[C@H]([C@H](C)C[C@@H]2CC[C@@H](OC(=O)NCCOCCOCCOCCOCCOCCOCCOCCOCCC(=O)N3CCc4cc(Cn5nc(-c6ccc7oc(N)nc7c6)c6c(N)ncnc65)ccc4C3)[C@H](OC)C2)C[C@@H](O)[C@H](C)/C=C(\C)[C@@H](O)[C@@H](OC)C(=O)[C@H](C)C[C@H](C)/C=C/C=C/C=C/1C — TRAE incidence (phase 1 dose escalation, refers to: diarrhoea; advanced solid tumour patients; intravenous, 6 mg weekly, any grade): 0%
CC(C)(c1ccccc1)c1cc(-n2nc3ccccc3n2)c(O)c(C(C)(C)c2ccccc2)c1 — mean daily dermal uptake (exposure assessment; human, age 16-21 years; spray sunscreen): 7.95 ng/kg body weight/day
c1ccc2c(c1)ccc1c3ccccc3ccc21 — log K(PDMS-water) (fresh water; 12 (unit not given), 20 °C, SSP sampler, 100 µm): 4.73 ± 0.01
COc1cc2c(Oc3ccc4[nH]c(C)cc4c3F)ccnc2cc1OCC1(N)CC1 — grade 3 gingival bleeding (paediatric recurrent refractory sarcoma; 12 mg): 0%
CC(=O)c1c(C)c2cnc(Nc3ccc(C4CCN(CCS(C)(=O)=O)CC4)cn3)nc2n(C2CCCC2)c1=O — patients with Hypertriglyceridemia (HR+/HER2- advanced breast cancer patients; oral, dose not given, all grades,, total): 22.2%
c1cc2ccc3cccc4ccc(c1)c2c34 — literature range factor (PDMS-water partitioning; PAH compilation; relative to: maximum over minimum K): 3
NCCCC[C@@H]1NC(=O)[C@@H](Cc2c[nH]c3ccccc23)NC(=O)[C@H](c2ccccc2)NC(=O)[C@@H]2C[C@@H](OC(=O)NCCN)CN2C(=O)[C@H](Cc2ccccc2)NC(=O)[C@H](Cc2ccc(OCc3ccccc3)cc2)NC1=O — QTcI change from baseline (healthy volunteers; subcutaneous, 1950 µg twice daily, day 5, 2.00 h): 11.2 ms
CC(C)[C@@H]1NC(=O)[C@@H]2CSSC[C@@H]3NC(=O)[C@H]([C@@H](C)O)NC(=O)[C@@H]4CSSC[C@H](NC(=O)[C@H](C(C)C)NC(=O)[C@@H]5CCCN5C(=O)[C@H](CCCCN)NC(=O)CNC(=O)[C@H](CC(N)=O)NC(=O)[C@H](CCCNC(=N)N)NC(=O)[C@H]([C@@H](C)O)NC(=O)[C@H](CSSC[C@H](NC(=O)[C@H]([C@@H](C)O)NC(=O)CNC(=O)CNC1=O)C(=O)N[C@@H](CC(N)=O)C(=O)N[C@@H]([C@@H](C)O)C(=O)N1CCC[C@H]1C(=O)NCC(=O)N4)NC(=O)[C@H](C(C)C)NC(=O)[C@@H]1CCCN1C(=O)[C@H](Cc1c[nH]c4ccccc14)NC(=O)[C@H](CO)NC3=O)C(=O)NCC(=O)N[C@@H](CCC(=O)O)C(=O)N[C@@H]([C@@H](C)O)C(=O)N2 — remaining peptide (HPLC; ammonium bicarbonate; 180 µM, 14 days, pH 9.0, 25 °C, deamidation stability): 86.1 ± 1%
Fc1ccc([C@@H]2CCNC[C@H]2COc2ccc3c(c2)OCO3)cc1 — List of Complaints score (refers to: baseline complaints; healthy volunteers; oral, dose not given, -1 h before LSD; direction not given): 1.4 ± 2.1
C[C@@H]1OC(=O)NN=C1c1ccc(-c2ccc(F)cc2)c(C(F)(F)F)c1 — patients with adverse event (phase I trial, refers to: AST increased all grades; human patients; 10 mg loading then 0.5 mg daily): 0%
N=C(N)NCCC[C@@H](NC(=O)[C@@H](N)Cc1ccccc1)C(=O)N[C@@H](Cc1ccccc1)C(=O)N[C@@H](CCCCN)C(N)=O — mean amount excreted in urine (LC-MS; human; 25 mg, 11.83 h): 1.46e+06 ng
Clc1cc(Cl)c(-c2c(Cl)c(Cl)cc(Cl)c2Cl)cc1Cl — log K(PDMS-water) (fresh water; 20 °C, S100 sampler, 100 µm): 6.72 ± 0.09
CN1CCN(S(=O)(=O)c2cc([N+](=O)[O-])ccc2N(CCOS(C)(=O)=O)CCOS(C)(=O)=O)CC1 — concentration (NSG mice female, plasma; intraperitoneal, 10 mg/kg, 0.25 h): 5.06 µM

Excerpt of the above:
CCN1CCN(Cc2ccc(Nc3ncc(F)c(-c4cc(F)c5nc6n(c5c4)[C@H](C)CCC6)n3)nc2)CC1 — Anemia incidence, grade ≥3 (advanced solid tumour patients; dose not given, Phase Ia monotherapy): 12.5%
CNCCCN1c2ccccc2CCc2ccccc21 — IC50 (Plasmodium falciparum; HB3): 12.6 µM
C=CC(=O)Nc1cc(Nc2nccc(Nc3cc(Cl)c(F)cc3C(C)(C)O)n2)c(OC)cc1N1CC[C@@H](N(C)C)C1 — patients with adverse event Pneumonia (human; oral, dose not given, phase I clinical): 10.8%
C[C@]1(O)C[C@@](N)(c2ccc(-c3nc4n(c3-c3ccccc3)COc3ccncc3-4)cc2)C1 — patients with Nausea TEAE (human, advanced or metastatic solid tumours; 16 mg once daily, dose-response cohort): 100%
CC(C)CC(=O)OC[C@H]1O[C@@](C#N)(c2ccc3c(N)ncnn23)[C@H](O)[C@@H]1O — unbound fraction in plasma (monkey plasma; 0.9-90 µM): 0.711
